Measured values from different studies.
Each numbered part is a random draw from the data of one study; scales do not carry over between parts.

Set 1 — method: protein binding microarray; molecule type: double-stranded DNA, one strand shown; sample: in vitro; concentration: not given; baseline: not given; direction: higher = stronger binding
Target: Histone acetyltransferase KAT6A, both winged helices, GST fusion (KAT6A, Homo sapiens, UniProt Q92794, residues 1-181)
Setting: 8-mer, flanks averaged, mean of 2 arrays, mostly near background
Construct (chain): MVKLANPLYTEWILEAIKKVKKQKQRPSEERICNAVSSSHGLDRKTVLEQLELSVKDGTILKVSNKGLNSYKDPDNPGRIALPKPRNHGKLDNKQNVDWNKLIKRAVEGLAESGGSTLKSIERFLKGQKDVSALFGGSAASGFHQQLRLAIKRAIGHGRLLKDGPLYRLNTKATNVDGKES
Oligonucleotide	E-score
CACACCTA	-0.0371
ATAACCGC	0.208
CCACACGC	0.0536
CTGATATC	0.0826

Set 2 — method: RNA Bind-n-Seq; molecule type: RNA; sample: in vitro; concentration: 365 nM; baseline: no-protein control; direction: higher = stronger binding
Target: RNA binding protein fox-1 homolog 2, RRM domain, GST-SBP tag (RBFOX2, Homo sapiens, UniProt O43251-10, residues 100-194)
Setting: natural RNA segment, single round, ends assumed
Constant ends, left off below: GGGAGUUCUACAGUCCGACGAUC … UGGAAUUCUCGGGUGCCAA
Residues (chain): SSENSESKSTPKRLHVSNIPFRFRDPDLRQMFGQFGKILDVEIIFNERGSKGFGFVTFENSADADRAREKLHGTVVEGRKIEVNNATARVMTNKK
Oligonucleotide	RBNS enrichment (R)
UUCAAGCAGUUCUCCUGCCUCAACCUCCCGAGUAGCUGGGACUACAGGCAUGUGCCACCACACCUGGCUCAUUUUUGUAUUUUUAGUAGAGACAGGGUUUCACCAUGUUG	0.307
GGUAGUGUCAGGACUAUCCUGUGCUCUAUGACAUUCUAUCUCUAAAAAUGAAGCAACACUUUUUCUGUUUAAUGAGUAUUAUGAGUUGGACAGCAAAUUUUUGUCUUAAU	0.327
UCUUCAGCCCCUUGCCUAGAGAGAUGGCCUGAUGGCCUUUUGUGCUUCCCCCCAGAGGGCAGUGGGGAUGCCUCCAGCCCCAGCCCCAAAUGGUGCUGCUACUGGAUCAG	0.335
AAAUACUCAGCUCCAUCAAGAGGAAUUGUGUCUAAGAGGAUACCCCUGUUAAUCUCCUUUUUUCUUGGAUUGGAGAGGAGAGAAUCUGGACAUGGCUUUGGACUUGGAGG	0.543
GACCAACCUGGCUAACAUGGCAAAACCUCGUCUCUACUAAAAAUACAAAAAUCAGCCCGGCGUGGUGGCGGGCAUCUGUAAUCCCAUCUACUCGGGAGGCUGAGGCAGGA	0.537

Set 3 — method: Spec-seq; molecule type: double-stranded DNA, one strand shown; sample: in vitro; concentration: not given; setting: whole probe, mean of replicates; baseline: not given; direction: lower = stronger binding; constant ends, left off below: GAGTCGTCTCGTCAGCAC … CCGTAGAGCACTCAGGTC
Target: Transcription factor SOX-2, HMG box (Sox2, Mus musculus, UniProt P48432, residues 41-119)
Chain of UniProt P48432 (41-119, looked up): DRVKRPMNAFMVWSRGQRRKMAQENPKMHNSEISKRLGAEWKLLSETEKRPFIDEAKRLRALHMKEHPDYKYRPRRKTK
Oligonucleotide	relative binding energy
CATCAGG	0.294 ln ratio
CATCTTG	0.719 ln ratio
CATGGTA	-0.0486 ln ratio
AGTAGTT	-0.0838 ln ratio
CAAAGTT	0.37 ln ratio
CATCTGC	0.977 ln ratio
AAACGTT	-0.416 ln ratio

Other studies, line by line
Molecule	target	assay	system	setting	how to read	endpoint	result
PhoQ, residues 284 288 289 292 302 303 GANMMA	PhoP, residues 12 14 15 18 19 LYFRQ (Escherichia coli, UniProt P23836)	Sort-seq, measured: YFP reporter	E. coli	PhoQ-PhoP variant library, together with: 10 µM Mg2+	baseline: high Mg2+ state, higher = stronger signaling	fold induction	14.7
